# Assay results gathered from unrelated publications.
# Parts stem from different laboratories: compare values within a part only.
# Sequence of UniProt P35348 (whole entry, looked up): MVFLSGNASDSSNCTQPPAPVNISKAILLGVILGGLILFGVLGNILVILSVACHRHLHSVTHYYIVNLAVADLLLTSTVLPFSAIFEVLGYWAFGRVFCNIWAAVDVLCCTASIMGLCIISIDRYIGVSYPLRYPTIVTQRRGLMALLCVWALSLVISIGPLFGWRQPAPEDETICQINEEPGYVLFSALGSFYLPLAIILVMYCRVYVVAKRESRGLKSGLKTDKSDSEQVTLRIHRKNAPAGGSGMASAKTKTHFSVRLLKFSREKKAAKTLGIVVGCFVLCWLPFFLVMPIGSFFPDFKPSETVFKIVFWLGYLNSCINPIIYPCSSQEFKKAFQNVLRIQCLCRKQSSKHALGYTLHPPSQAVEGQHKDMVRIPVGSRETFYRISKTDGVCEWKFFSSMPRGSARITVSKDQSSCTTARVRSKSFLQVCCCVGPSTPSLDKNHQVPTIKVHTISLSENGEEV
# Sequence of UniProt P14416 (whole entry, looked up): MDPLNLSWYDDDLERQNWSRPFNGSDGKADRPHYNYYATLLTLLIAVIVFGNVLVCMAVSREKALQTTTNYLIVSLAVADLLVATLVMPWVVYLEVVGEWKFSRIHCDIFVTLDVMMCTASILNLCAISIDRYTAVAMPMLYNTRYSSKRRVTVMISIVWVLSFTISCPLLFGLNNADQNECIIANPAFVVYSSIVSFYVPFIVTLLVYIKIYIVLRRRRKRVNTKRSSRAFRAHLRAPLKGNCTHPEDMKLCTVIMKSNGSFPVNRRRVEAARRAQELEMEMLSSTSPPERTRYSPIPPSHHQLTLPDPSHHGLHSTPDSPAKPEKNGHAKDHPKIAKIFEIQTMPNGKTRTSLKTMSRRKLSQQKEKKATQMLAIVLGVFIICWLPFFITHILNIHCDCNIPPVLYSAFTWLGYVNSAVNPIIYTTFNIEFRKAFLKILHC
# Sequence of UniProt P21728 (whole entry, looked up): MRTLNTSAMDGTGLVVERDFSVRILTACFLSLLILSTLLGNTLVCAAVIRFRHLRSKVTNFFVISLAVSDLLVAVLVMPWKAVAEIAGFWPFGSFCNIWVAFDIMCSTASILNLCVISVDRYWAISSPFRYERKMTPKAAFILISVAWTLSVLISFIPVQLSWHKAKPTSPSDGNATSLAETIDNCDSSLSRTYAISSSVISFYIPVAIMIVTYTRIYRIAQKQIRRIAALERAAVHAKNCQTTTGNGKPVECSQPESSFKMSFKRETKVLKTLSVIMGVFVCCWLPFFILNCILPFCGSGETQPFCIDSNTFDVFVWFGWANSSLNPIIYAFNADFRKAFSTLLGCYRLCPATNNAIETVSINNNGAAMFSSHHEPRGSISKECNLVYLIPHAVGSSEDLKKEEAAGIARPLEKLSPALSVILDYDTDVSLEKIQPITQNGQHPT
# Sequence of UniProt P08173 (whole entry, looked up): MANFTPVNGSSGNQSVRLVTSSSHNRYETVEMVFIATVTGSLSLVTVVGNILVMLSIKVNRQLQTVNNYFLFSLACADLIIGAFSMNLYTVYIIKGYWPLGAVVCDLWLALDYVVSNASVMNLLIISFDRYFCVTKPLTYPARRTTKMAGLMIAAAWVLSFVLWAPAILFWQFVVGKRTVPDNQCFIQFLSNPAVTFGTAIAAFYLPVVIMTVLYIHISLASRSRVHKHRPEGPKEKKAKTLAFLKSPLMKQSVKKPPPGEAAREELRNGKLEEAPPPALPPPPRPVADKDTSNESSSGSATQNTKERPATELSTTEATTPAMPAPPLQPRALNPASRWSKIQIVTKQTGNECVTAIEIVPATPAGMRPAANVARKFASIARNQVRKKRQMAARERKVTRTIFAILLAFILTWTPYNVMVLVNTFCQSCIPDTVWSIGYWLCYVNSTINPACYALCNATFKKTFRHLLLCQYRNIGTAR
# Sequence of UniProt Q9Y5N1 (whole entry, looked up): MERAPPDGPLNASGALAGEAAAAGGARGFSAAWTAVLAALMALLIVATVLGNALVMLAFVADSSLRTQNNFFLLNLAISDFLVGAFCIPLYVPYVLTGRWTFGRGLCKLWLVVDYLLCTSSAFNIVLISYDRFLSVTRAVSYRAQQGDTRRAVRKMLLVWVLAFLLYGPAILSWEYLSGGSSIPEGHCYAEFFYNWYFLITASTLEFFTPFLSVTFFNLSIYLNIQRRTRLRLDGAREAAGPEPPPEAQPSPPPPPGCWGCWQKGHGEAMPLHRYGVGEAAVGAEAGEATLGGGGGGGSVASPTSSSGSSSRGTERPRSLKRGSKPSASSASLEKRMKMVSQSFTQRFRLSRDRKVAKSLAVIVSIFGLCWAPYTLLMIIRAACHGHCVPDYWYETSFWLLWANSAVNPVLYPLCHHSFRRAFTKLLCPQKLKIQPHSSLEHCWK

# Study 1 — technique: phase 2a trial; host: idiopathic pulmonary fibrosis patients
# Compound: CC(C)n1cnc(-c2ccc(F)cc2)c1-c1ncc(C(=O)Nc2ccc(N3CCN(C)CC3)cc2)[nH]1
assay,conditions,adverse event incidence [%]
measured: infection,"60 mg once daily, grade 5",0
measured: gingivitis,"60 mg once daily, grade 2",0
measured: arthritis,"dose not given, grade 1, all arms pooled",0
measured: immunoglobulins increased,"60 mg once daily, grade 5",0
measured: hepatic enzyme abnormal,"30 mg once daily, grade 5",0
measured: QRS axis abnormal,"30 mg once daily, grade 2",0
measured: immunoglobulins increased,"dose not given, grade 2, all arms pooled",0

# Study 2 — cell line: mouse MPNST tumor cells; technique: high-content immunofluorescence imaging; measured: nuclear SOX9; concentration: 10 µM; time: 12 h; notes: mean of 2 replicates; relative to: DMSO control; reading: higher = more nuclear SOX9
Compound,nuclear SOX9 intensity
COc1ccc(NS(=O)(=O)c2ccc(N)cc2)nn1,75 % of DMSO
O=c1oc(-c2ccc(C(F)(F)F)cc2)nn1Cc1cc(Cl)ccc1O,144 % of DMSO
COc1ccc(-c2csc(NC(=O)[C@H]3CCCCN3S(=O)(=O)c3ccc(C)cc3)n2)cc1,117 % of DMSO
N[C@@H](CC(=O)N1CCn2c(nnc2C(F)(F)F)C1)Cc1[nH]nc2c(F)c(F)ccc12,109 % of DMSO
Nc1ncnc2c1c(-c1cnc3[nH]ccc3c1)nn2C1CCCC1,101 % of DMSO
COc1ccc(-c2cc(=O)c3c(O)cc(O[C@@H]4O[C@H](CO[C@@H]5O[C@@H](C)[C@H](O)[C@@H](O)[C@H]5O)[C@@H](O)[C@H](O)[C@H]4O)cc3o2)cc1O,96.9 % of DMSO
NC(=O)[C@@H](CCC(F)(F)F)N(Cc1ccc(-c2ncon2)cc1F)S(=O)(=O)c1ccc(Cl)cc1,124 % of DMSO
O=C(O)Cn1c(C(=O)Nc2nc(-c3ccccc3Cl)cs2)cc2ccccc21,114 % of DMSO

# Study 3 — concentration: 10 µM
# Structure (SMILES): Cc1cc2c(-c3ccco3)cnc(N[C@@H]3CCN(C)C[C@H]3C(=O)NC3CCCCC3)c2[nH]c1=O
target,assay,inhibition [%]
"Beta-1 adrenergic receptor (ADRB1, Homo sapiens, UniProt P08588)",ligand displacement,1.68
"5-hydroxytryptamine receptor 1B (HTR1B, Homo sapiens, UniProt P28222)","binding, radioligand binding",3.37
"Beta-3 adrenergic receptor (ADRB3, Homo sapiens, UniProt P13945)",ligand displacement,13.8
"5-hydroxytryptamine receptor 1D (HTR1D, Homo sapiens, UniProt P28221)",cell-free assay,-6.42
"Histamine H3 receptor (HRH3, Homo sapiens, UniProt Q9Y5N1)",ligand displacement,-9.93
"D(2) dopamine receptor (DRD2, Homo sapiens, UniProt P14416)",ligand displacement,-4.38
"Alpha-1A adrenergic receptor (ADRA1A, Homo sapiens, UniProt P35348)",ligand displacement,25.2
"Muscarinic acetylcholine receptor M4 (CHRM4, Homo sapiens, UniProt P08173)",ligand displacement,17.1
"Histamine H2 receptor (HRH2, Homo sapiens, UniProt P25021)",ligand displacement,-1.12
"D(3) dopamine receptor (DRD3, Homo sapiens, UniProt P35462)",ligand displacement,9.01
"D(1A) dopamine receptor (DRD1, Homo sapiens, UniProt P21728)",ligand displacement,27.3
"5-hydroxytryptamine receptor 1E (HTR1E, Homo sapiens, UniProt P28566)",cell-free assay,-38.6
"Alpha-2B adrenergic receptor (ADRA2B, Homo sapiens, UniProt P18089)",ligand displacement,-0.37

# Study 4 — effect on: enzyme activity; mode: inhibitor; concentration: 77 µM; relative to: untreated
# Target: DNA polymerase theta, ATPase domain (POLQ, Homo sapiens, UniProt O75417)
# Sequence of UniProt O75417 (whole entry, unmodified, looked up): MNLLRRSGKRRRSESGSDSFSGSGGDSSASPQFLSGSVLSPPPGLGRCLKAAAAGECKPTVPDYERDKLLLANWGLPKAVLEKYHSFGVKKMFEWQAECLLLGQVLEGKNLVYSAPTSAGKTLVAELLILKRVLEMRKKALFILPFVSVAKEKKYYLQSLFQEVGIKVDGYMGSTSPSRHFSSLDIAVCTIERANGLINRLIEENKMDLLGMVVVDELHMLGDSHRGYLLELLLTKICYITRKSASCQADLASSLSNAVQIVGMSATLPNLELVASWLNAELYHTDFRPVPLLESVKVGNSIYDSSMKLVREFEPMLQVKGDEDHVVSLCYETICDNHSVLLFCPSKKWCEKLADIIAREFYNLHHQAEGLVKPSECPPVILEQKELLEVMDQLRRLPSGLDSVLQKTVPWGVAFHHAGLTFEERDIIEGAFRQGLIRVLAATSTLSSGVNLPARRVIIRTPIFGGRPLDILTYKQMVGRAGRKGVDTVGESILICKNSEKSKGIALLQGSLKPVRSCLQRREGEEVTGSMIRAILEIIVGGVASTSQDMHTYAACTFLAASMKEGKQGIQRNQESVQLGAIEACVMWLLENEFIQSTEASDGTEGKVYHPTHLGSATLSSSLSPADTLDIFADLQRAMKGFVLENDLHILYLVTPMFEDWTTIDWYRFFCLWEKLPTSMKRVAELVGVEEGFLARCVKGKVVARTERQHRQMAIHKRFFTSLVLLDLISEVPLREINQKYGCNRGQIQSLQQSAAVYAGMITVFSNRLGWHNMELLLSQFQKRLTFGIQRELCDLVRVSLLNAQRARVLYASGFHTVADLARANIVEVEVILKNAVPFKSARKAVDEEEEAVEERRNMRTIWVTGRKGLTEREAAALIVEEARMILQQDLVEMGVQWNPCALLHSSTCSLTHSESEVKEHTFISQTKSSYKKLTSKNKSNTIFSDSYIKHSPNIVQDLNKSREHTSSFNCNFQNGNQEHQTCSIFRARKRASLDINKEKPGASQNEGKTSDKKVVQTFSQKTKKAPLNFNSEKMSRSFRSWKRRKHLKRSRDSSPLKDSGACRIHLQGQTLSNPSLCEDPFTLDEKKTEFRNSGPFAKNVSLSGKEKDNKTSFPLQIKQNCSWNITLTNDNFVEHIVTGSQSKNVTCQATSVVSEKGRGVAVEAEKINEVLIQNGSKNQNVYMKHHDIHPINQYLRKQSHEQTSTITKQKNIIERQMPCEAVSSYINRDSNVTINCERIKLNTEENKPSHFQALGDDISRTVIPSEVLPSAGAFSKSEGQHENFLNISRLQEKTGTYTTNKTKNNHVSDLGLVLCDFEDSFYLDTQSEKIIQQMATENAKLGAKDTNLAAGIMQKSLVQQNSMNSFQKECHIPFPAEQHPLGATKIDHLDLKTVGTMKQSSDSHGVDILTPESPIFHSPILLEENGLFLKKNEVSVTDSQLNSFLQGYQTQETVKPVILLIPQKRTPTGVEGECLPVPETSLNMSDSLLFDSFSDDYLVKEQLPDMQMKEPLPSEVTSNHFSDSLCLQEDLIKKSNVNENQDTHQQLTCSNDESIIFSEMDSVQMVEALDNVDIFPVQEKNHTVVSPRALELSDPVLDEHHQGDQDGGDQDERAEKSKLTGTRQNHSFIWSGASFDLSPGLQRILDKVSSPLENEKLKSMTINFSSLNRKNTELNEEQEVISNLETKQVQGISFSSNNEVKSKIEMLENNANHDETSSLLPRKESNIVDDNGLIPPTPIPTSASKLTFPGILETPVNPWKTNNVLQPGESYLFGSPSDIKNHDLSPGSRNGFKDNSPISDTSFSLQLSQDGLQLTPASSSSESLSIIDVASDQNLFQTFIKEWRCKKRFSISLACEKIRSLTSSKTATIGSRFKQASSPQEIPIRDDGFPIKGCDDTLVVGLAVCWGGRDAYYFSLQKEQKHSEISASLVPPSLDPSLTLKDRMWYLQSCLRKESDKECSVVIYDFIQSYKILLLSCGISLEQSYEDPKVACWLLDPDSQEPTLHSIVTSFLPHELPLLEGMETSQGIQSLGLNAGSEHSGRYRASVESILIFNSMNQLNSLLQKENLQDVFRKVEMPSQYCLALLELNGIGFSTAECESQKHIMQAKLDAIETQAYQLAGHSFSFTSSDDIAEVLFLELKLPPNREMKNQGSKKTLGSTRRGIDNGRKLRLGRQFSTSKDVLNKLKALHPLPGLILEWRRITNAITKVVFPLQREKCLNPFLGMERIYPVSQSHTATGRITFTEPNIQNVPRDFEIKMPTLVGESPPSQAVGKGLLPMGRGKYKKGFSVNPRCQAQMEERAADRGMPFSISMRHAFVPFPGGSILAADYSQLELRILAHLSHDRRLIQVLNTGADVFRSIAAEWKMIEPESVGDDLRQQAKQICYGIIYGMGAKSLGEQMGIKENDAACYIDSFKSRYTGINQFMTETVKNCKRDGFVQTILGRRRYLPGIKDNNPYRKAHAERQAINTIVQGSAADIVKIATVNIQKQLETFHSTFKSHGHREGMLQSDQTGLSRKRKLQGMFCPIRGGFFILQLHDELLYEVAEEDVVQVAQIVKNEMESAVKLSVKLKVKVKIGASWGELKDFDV
Structure (SMILES),remaining activity
CCCCCC(O)CCCC(=O)O (stereo not shown),101%
C1CCN2C[C@@H]3C[C@@H](CN4CCCC[C@@H]34)[C@H]2C1,101%
CCc1c(C(=O)NCCc2ccc(N3CCCCC3)cc2)[nH]c2ccc(Cl)cc12,92.1%
CCCc1c(-c2ccc(O)cc2)nn(-c2ccc(O)cc2)c1-c1ccc(O)cc1,112%
O=c1cc(-c2ccccc2)oc2c(O)c(O)ccc12,96.9%
O=C(O)c1cc2cccc([N+](=O)[O-])c2[nH]1,95.5%

# A few entries again (study 3):
target,assay,inhibition [%]
"Histamine H2 receptor (HRH2, Homo sapiens, UniProt P25021)",ligand displacement,-1.12
"Muscarinic acetylcholine receptor M4 (CHRM4, Homo sapiens, UniProt P08173)",ligand displacement,17.1
